Measured values of several laboratories.
Compare with care: the assays were run in different laboratories.
Target: MAP kinase-interacting serine/threonine-protein kinase 1 (MKNK1, Homo sapiens, UniProt Q9BUB5)
Sequence of UniProt Q9BUB5 (whole entry, unmodified, looked up): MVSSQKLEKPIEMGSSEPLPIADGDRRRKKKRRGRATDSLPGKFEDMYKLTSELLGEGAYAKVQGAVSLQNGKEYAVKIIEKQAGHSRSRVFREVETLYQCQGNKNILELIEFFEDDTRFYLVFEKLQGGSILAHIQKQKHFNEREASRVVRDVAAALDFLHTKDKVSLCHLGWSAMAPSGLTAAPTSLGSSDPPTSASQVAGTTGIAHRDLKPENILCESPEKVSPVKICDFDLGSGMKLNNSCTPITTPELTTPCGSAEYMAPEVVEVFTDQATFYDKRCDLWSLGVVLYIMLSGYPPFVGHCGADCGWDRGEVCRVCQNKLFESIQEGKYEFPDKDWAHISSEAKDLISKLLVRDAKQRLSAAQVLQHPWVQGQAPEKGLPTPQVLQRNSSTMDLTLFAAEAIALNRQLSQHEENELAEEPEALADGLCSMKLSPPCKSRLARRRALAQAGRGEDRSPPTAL

CC(=O)N1c2ccc(-c3ccc(CNC(=O)c4cn5cc(-c6cnc(N)nc6)nc(N6CCOCC6)c5n4)cc3)cc2CC[C@@H]1C  remaining binding (KINOMEscan; 10 µM): 94%
COc1ccc(NC(=O)Nc2ccc3c(c2)C(=O)N(C(C)CO)CC(C)C(CN(C)Cc2ccc4c(c2)OCO4)O3)cc1 (stereo not drawn)  remaining binding (binding, competition with immobilised ligand; 10 µM): 87%
C=CC(=O)Nc1cccc(-c2cnc3[nH]cc(C(=O)NC(C)(C)C)c3n2)c1  inhibition (enzyme activity, inhibitor; 0.1 µM): 8%
Cc1cccc(-c2ccc3nc(NC(=O)C4CCCCC4)nn3c2)c1  remaining activity (enzyme activity, Dundee kinase panel; 10 µM): 82%
C=CC(=O)N1CCCC(n2c(=O)c3ncccc3n(Cc3ccc(Oc4ccccc4)cc3)c2=O)C1 (stereo not drawn)  remaining binding (cell-free assay, competition with immobilised ligand; 1 µM): 86%
Nc1ncc(-c2cc(-c3cnn(CC(F)(F)F)c3)ncc2F)nc1C(=O)NC1CNCC(F)C1 (stereo not drawn)  remaining activity (enzyme activity; 1 µM; baseline: DMSO control): 27.9%
COc1cc(Nc2nc(C)cc(-c3cnn4nc(OC)ccc34)n2)cc(C(F)(F)F)c1  remaining activity (inhibitor; 1 µM; baseline: control): 93%
NC(=O)C[C@H]1CCc2sc3ncnc(O[C@H]4CC[C@H](N5CCOCC5)CC4)c3c21  inhibition (enzyme activity, inhibitor; 10 µM): 1%
Cc1cccc(O[C@H]2CCC[C@@H](C(C)CNCc3ccncc3)C2)c1 (relative stereo)  inhibition (enzyme activity, inhibitor; 10 µM): -7%
C=CC(=O)N1CCc2ccc(-n3c(=O)ccc4cnc5ccc(-c6cnn(C)c6)cc5c43)cc21  remaining binding (KINOMEscan; 1 µM; baseline: DMSO control): 100%
Cc1cnc2nc1Nc1cccc(c1)COC/C=C/COCc1cc(ccc1OCCN1CCOCC1)N2  remaining binding (binding; 0.1 µM): 88%
CCn1cc(C(=O)O)c(=O)c2c(N)c(F)c(NC3CCCCC3)cc21  inhibition (kinase activity; 0.1 µM, with: ATP at Km): -7.2%
CN1CCN(Cc2ccc(NC(=O)c3cccc(C#Cc4cnc(N)c5ncccc45)c3)cc2C(F)(F)F)CC1  remaining binding (cell-free assay, competition with immobilised ligand; 0.5 µM): 3.3%
CN1CCN(Cc2ccc(-c3ccc(CO[C@H]4CCC[C@@H]4NC(=O)c4cc(-c5cnn(C)c5)cnc4N)cc3)cc2)CC1  inhibition (enzyme activity, inhibitor; 0.1 µM): -4%
C=C1CCCCCCCCCC(CO)C1=O (stereo not drawn)  remaining binding (cell-free assay, competition with immobilised ligand; 10 µM): 100%
CNS(=O)(=O)Nc1nccc(Cc2c(C)c3ccc(Oc4ncccc4F)cc3oc2=O)c1F  remaining binding (binding, competition with immobilised ligand; 10 µM): 100%
Cc1cccc(-c2ccc3nc(NC(=O)C4CCCO4)nn3c2)c1 (stereo not drawn)  remaining activity (enzyme activity, Dundee kinase panel; 10 µM): 80%
CNC(=O)C1CCN(c2cc(C)c(F)cc2NC(=O)c2ccc(-c3cc(O)ccc3C)c(C)c2)CC1  remaining binding (binding, competition with immobilised ligand; 1 µM): 93%

Excerpt of the above:
COc1ccc(NC(=O)Nc2ccc3c(c2)C(=O)N(C(C)CO)CC(C)C(CN(C)Cc2ccc4c(c2)OCO4)O3)cc1 (stereo not drawn)  remaining binding (binding, competition with immobilised ligand; 10 µM): 87%
CN1CCN(Cc2ccc(-c3ccc(CO[C@H]4CCC[C@@H]4NC(=O)c4cc(-c5cnn(C)c5)cnc4N)cc3)cc2)CC1  inhibition (enzyme activity, inhibitor; 0.1 µM): -4%
